Published values pooled from the literature.
Compare with care: the assays were run in different laboratories. ± gives the spread as reported.
prp N63Q: Ribosomal processing cysteine protease Prp (prp, Staphylococcus aureus, UniProt Q2FXS9, N63Q)
Chain of UniProt Q6ZN16 (whole entry, looked up): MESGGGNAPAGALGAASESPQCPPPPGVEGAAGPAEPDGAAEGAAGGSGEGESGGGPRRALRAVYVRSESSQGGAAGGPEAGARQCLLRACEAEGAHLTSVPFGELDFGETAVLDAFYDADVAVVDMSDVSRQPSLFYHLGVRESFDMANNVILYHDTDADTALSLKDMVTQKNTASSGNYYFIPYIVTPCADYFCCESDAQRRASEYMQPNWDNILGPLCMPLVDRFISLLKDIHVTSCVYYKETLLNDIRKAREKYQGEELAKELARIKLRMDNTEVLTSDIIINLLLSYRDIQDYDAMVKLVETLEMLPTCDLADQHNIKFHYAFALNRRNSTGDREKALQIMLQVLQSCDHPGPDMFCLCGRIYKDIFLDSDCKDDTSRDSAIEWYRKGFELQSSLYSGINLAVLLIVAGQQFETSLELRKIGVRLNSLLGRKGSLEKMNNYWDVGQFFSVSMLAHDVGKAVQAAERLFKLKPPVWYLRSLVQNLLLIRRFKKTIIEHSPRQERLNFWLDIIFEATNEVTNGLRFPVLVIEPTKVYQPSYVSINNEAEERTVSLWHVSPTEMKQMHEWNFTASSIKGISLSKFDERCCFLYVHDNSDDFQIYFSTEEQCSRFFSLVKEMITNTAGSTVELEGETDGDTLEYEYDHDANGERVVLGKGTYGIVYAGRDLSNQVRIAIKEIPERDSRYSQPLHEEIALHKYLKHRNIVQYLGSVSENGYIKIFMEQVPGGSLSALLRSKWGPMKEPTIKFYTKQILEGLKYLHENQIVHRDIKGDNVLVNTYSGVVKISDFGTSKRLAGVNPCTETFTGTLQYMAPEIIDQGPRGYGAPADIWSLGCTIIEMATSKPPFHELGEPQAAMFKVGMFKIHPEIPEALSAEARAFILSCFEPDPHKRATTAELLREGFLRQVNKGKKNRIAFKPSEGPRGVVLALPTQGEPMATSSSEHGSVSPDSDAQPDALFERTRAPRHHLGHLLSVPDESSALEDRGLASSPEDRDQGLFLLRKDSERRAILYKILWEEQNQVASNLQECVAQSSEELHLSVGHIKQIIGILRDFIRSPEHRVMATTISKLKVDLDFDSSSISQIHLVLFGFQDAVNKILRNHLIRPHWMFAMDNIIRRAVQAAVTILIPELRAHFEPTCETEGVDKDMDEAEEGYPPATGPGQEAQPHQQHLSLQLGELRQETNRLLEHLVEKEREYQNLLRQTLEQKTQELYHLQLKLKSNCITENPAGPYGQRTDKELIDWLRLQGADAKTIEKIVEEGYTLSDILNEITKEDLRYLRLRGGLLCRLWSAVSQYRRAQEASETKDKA
Chain of UniProt Q99705 (whole entry, looked up): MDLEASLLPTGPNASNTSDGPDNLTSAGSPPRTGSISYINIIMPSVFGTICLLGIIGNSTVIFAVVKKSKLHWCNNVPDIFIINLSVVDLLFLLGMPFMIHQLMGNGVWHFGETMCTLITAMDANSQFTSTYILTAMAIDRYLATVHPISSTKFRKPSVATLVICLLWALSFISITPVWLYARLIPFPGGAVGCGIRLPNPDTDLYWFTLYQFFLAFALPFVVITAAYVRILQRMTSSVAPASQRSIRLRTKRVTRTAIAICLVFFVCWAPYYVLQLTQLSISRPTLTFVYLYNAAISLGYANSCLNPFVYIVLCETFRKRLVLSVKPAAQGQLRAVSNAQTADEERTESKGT
Chain of UniProt Q16602 (whole entry, looked up): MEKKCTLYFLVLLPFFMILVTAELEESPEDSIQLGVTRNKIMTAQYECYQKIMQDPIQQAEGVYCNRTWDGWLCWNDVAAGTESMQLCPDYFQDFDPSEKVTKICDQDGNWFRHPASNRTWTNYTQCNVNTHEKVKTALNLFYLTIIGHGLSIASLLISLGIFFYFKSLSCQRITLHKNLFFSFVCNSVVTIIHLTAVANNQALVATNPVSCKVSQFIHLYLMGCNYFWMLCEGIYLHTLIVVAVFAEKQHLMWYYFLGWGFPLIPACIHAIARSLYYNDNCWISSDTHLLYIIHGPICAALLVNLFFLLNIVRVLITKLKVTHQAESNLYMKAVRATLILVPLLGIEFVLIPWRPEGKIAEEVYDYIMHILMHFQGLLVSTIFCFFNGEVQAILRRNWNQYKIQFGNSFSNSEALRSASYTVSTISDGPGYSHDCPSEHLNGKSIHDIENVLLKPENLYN
Chain of UniProt Q9HAZ1 (whole entry, looked up): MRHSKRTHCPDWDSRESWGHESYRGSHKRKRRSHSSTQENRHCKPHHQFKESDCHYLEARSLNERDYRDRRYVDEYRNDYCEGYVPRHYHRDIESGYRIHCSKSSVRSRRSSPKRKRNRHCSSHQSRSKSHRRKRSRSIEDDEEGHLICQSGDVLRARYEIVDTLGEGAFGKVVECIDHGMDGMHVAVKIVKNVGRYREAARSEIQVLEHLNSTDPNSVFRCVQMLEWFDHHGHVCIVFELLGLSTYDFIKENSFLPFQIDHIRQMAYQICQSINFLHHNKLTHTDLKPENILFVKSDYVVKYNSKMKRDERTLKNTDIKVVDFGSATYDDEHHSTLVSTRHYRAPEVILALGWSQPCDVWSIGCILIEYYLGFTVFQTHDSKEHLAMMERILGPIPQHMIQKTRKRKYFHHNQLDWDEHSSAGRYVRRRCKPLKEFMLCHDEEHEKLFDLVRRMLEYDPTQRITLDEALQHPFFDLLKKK
Chain of UniProt Q99720 (whole entry, looked up): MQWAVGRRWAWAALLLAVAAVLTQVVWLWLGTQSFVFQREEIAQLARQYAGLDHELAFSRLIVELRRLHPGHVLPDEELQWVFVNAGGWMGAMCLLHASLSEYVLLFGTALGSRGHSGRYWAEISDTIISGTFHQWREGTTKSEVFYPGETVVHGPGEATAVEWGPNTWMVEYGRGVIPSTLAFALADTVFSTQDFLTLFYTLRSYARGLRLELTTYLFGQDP

| SMILES | target | test | conditions | inhibition |
| --- | --- | --- | --- | --- |
| COc1ccc(N2C(=O)N(c3c(C)cccc3Cl)Cc3cnc(Nc4ccc(C5CCN(C)CC5)cc4OC)nc32)nc1 | Dual specificity protein kinase CLK4 (CLK4, Homo sapiens, UniProt Q9HAZ1) | kinase activity | 0.5 µM | 34% |
| COC(=O)N[C@H](C(=O)N[C@@H](Cc1ccccc1)[C@@H](O)CN(Cc1ccc(-c2ccccn2)cc1)NC(=O)[C@@H](NC(=O)OC)C(C)(C)C)C(C)(C)C | prp N63Q | enzyme activity, inhibitor | 10 µM, prp 21.4 nM, added: FITC peptide substrate 0.5 µM | 33.6 ± 9.7% |
| COc1cc(Nc2ncc(F)c(Nc3ccc4c(n3)NC(=O)C(C)(C)O4)n2)cc(OC)c1OC | Mitogen-activated protein kinase kinase kinase 15 (MAP3K15, Homo sapiens, UniProt Q6ZN16) | KINOMEscan | 10 µM | 51% |
| O=C(Nc1cccnn1)N1CCC(=Cc2cccc(Oc3ccc(C(F)(F)F)cn3)c2)CC1 | muscarinic receptor, rat | binding | 50 µM, added: [3H]oxotremorine M | 38% |
| CN1CCN(c2cc(-c3ccncc3)c(-c3ccc4ccccc4c3)nn2)CC1 | Melanin-concentrating hormone receptor 1 (MCHR1, Homo sapiens, UniProt Q99705) | antagonist, FLIPR | 10 µM | 38.6% |
| CN(C(=O)n1cnc(-c2ccc[n+]([O-])c2)c1)C1CCCCC1 | Calcitonin gene-related peptide type 1 receptor (CALCRL, Homo sapiens, UniProt Q16602) | radioligand binding | 10 µM | 2% |
| CC(=O)NC[C@H]1[C@H](O)[C@H](O)[C@@H]2[C@H](O)C[C@@H](CO)N21 | human placental β-N-acetylglucosaminidase | – | 0.01288 µM, run 1, added: p-nitrophenyl GlcNAc | 65% |
| O=C(Nc1cnccc1Cl)N1CCN(Cc2ccc3c(c2)OC(F)(F)O3)CC1 | Sigma non-opioid intracellular receptor 1 (SIGMAR1, Homo sapiens, UniProt Q99720) | radioligand binding, inhibitor | 10 µM, human, added: [3H]haloperidol | 36% |
| CCC1=C(C)CN(C(=O)NCCc2ccc(S(=O)(=O)NC(=O)N[C@H]3CC[C@H](C)CC3)cc2)C1=O | prp N63Q | enzyme activity, inhibitor | 10 µM, prp 21.4 nM, added: FITC peptide substrate 0.5 µM | 9.2 ± 9.1% |
